Experimental data of several laboratories.
Lines come from different studies, so protocols differ. Several values in a cell are separate wells, animals, samples, runs or records. Numbers after ± are the reported error.

Compound = Cc1cccc(C)c1NC(=O)C1CCCCN1 (stereo not shown); assay = haematoxylin-eosin histology; test system = rat, muscle around sciatic nerve; conditions = sciatic nerve injection, 30 mM, 4 days, median, scale 0 to 6; how to read = direction not given; measurement = myotoxicity score; result = 1
Compound = COc1ccc(C[C@@H]2NC(=O)[C@H]([C@@H](C)O)NC(=O)[C@@H]3[C@@H]4CCN3C(=O)[C@@H]3Cc5cn(c6ccc(F)cc56)CCCCCCN(Cc5ccc(cc5)CCNC(=O)[C@]5(C)CCCN5C2=O)C(=O)CCC(=O)N[C@@H](C)C(=O)N[C@H](CNC(=O)CCCCC[N+](C)(C)C)C(=O)N[C@@H](Cc2cccc(c2)CNC(=O)CO4)C(=O)N3)cc1; assay = refers to: maculo-papular rash; test system = human; conditions = dose not given; measurement = participants with adverse event; result = 2%
Compound = O=C(Nc1ccccc1)C1CCN(C(=O)Oc2cccnc2)CC1; assay = psychotropic effects VAS; test system = healthy women; conditions = 20 mg; how to read = relative to: pre-dose baseline, direction not given; measurement = change in Reality score; result = 0.1
Compound = CN(C(=O)n1cnc(-c2ccc[n+]([O-])c2)c1)C1CCCCC1; test system = Wistar rat, hippocampus; conditions = oral, 10 mg/kg, 24 h, single dose; measurement = concentration; result = 10 ± 1.3 ng/g
Compound = Oc1ccc(CCc2cc(O)cc(O)c2)cc1; test system = human, both sexes, plasma; conditions = median; measurement = plasma concentration; result = 1140 nM
Compound = NCCCC[C@@H]1NC(=O)[C@@H](Cc2c[nH]c3ccccc23)NC(=O)[C@H](c2ccccc2)NC(=O)[C@@H]2C[C@@H](OC(=O)NCCN)CN2C(=O)[C@H](Cc2ccccc2)NC(=O)[C@H](Cc2ccc(OCc3ccccc3)cc2)NC1=O; test system = healthy volunteers, male; conditions = 600 µg twice daily, 0.0 h, post hoc; measurement = placebo-corrected QTcF change; result = 6.8 ms
Compound = O=C1Nc2cc3[nH]nc(-c4ccncc4)c3cc2CN1Cc1ccccc1; assay = CTCAE v4.03; test system = advanced solid tumour patients; conditions = intravenous, 3.6 mg/kg; measurement = patients with diarrhoea; result = 0%
Compound = CN1CC[C@@H](c2c(O)cc(O)c3c(=O)cc(-c4ccc(C(F)(F)F)cc4Cl)oc23)[C@@H]1CO; assay = refers to: febrile neutropenia; test system = AML; conditions = oral, 150 mg, grade 3 to 4, intermittent dosing; measurement = patients with adverse event; result = 0%
Compound = CC(C)(C)c1cc(-n2nc3ccccc3n2)c(O)c(C(C)(C)C)c1; test system = human aged 11-16 years; conditions = concentration not given, spray sunscreen, mean; measurement = daily dermal exposure dose; result = 3.8 ng/kg/day
Compound = O=S(=O)(Nc1ccccc1)c1ccc(NC(=S)Nc2ccccc2)cc1; test system = mouse, male, blood; conditions = oral, 5 mg/kg daily, 14 days; measurement = mean corpuscular haemoglobin concentration; result = 31.4 g/dL
Compound = CC1(C)C(=O)N(c2ccc(C#N)c(C(F)(F)F)c2)C(=S)N1c1ccc(C(N)=O)c(F)c1; assay = population PK base model; test system = human; conditions = dose not given; measurement = peripheral volume of distribution; result = 49.5 L
Compound = COc1ncccc1-c1cnn2ccc(N3CCN(C(=O)OC(C)C)CC3)nc12; test system = rat, STZ model, plasma; conditions = oral, 1 mg/kg, 240 min; measurement = drug concentration; result = 90 nM
Compound = COc1cc2nccc(Oc3ccc(NC(=O)C4(C(=O)Nc5ccc(F)cc5)CC4)cc3)c2cc1OC; test system = human, plasma; conditions = oral, 60 mg once daily, 1 month, added: grapefruit juice; measurement = trough plasma concentration; result = 252 ng/mL
Compound = C[C@@H]1OC(=O)NN=C1c1ccc(-c2ccc(F)cc2)c(C(F)(F)F)c1; assay = phase I trial, refers to: Fatigue worst grade 1; test system = human patients; conditions = 10 mg loading then 0.5 mg daily; measurement = patients with adverse event; result = 100%
Compound = CCN1CCN(Cc2ccc(Nc3ncc(F)c(-c4cc(F)c5nc6n(c5c4)[C@H](C)CCC6)n3)nc2)CC1; test system = advanced solid tumour patients; conditions = dose not given, Phase Ia monotherapy; measurement = Hyperglycemia incidence, any grade; result = 29.2%
Compound = C=CCNc1c(O)cc2c(O)c1C[C@@H](C)C[C@H](OC)[C@H](O)[C@@H](C)/C=C(\C)[C@H](OC(N)=O)[C@@H](OC)/C=C\C=C(/C)C(=O)N2; assay = refers to: first-degree AV block; test system = patients with unresectable or metastatic GIST, STS or other tumours; conditions = intravenous, 90 mg/m^2; measurement = treatment-emergent adverse events; result = 17%
Compound = CC(=O)c1c(C)c2cnc(Nc3ccc(C4CCN(CCS(C)(=O)=O)CC4)cn3)nc2n(C2CCCC2)c1=O; test system = human, dose-escalation trial, plasma; conditions = oral, 150 mg twice daily, day 1, single dose; measurement = Cmax; result = 324 ng/mL
Compound = Cc1cn([C@H]2O[C@@H](CO[P@@](=O)(N[C@@H](C)C(=O)OC(C)C)Oc3ccccc3)[C@H](O)[C@H]2F)c(=O)[nH]c1=O; assay = refers to: external ear pain; test system = human; conditions = 25 mg; measurement = patients with TEAE; result = 0%
Compound = O=C(Nc1cccnn1)N1CCC(=Cc2cccc(Oc3ccc(C(F)(F)F)cn3)c2)CC1; test system = culture medium without cells; conditions = 100 nM, 1 h; measurement = concentration; result = 38.6 ± 0.6 nM
Compound = C[C@]1(CO)Cc2ncn(-c3ccc(C#N)c(Cl)c3)c2C(=O)O1; test system = human; conditions = 0.7 mg single dose; measurement = subjects with drug-related dysgeusia; result = 0%
Compound = C=C(CN(C(=O)c1c(C(F)F)nn(C)c1F)C1CC1)c1ccc(Cl)cc1Cl; assay = static acute toxicity test; test system = zebrafish (Brachydanio rerio); conditions = 1.00 mg a.i./L, 24 h; measurement = mortality; result = 10%
Compound = COc1cc2c(cc1OC)CN(CCc1ccc(NC(=O)c3cccc4c(=O)c5cccc(OC)c5[nH]c34)cc1)CC2; test system = CD-1 mouse, male, plasma; conditions = intraperitoneal, 10 mg/kg; measurement = half-life; result = 13.9 h
Compound = CO[C@H]1C[C@@H]2CC[C@@H](C)[C@@](O)(O2)C(=O)C(=O)N2CCCC[C@H]2C(=O)O[C@H]([C@H](C)C[C@@H]2CC[C@@H](OC(=O)NCCOCCOCCOCCOCCOCCOCCOCCOCCC(=O)N3CCc4cc(Cn5nc(-c6ccc7oc(N)nc7c6)c6c(N)ncnc65)ccc4C3)[C@H](OC)C2)C[C@@H](O)[C@H](C)/C=C(\C)[C@@H](O)[C@@H](OC)C(=O)[C@H](C)C[C@H](C)/C=C/C=C/C=C/1C; assay = dose-escalation trial; test system = patients with advanced solid tumours; conditions = intravenous, 1.6 mg/3 mg weekly, any grade; measurement = abdominal pain TEAE incidence; result = 20%
Compound = Cc1cccc(Cn2nc(C3CC3)c3c(NC(=O)c4cnc5cc(OCCN6CCN(C)CC6)ccn45)cccc32)n1; assay = refers to: Anemia; test system = human pancreatic ductal adenocarcinoma; conditions = oral, dose not given, all-causality; measurement = adverse events incidence; result = 33.3%
Compound = C[C@]1(O)C[C@@](N)(c2ccc(-c3nc4n(c3-c3ccccc3)COc3ccncc3-4)cc2)C1; test system = human, advanced or metastatic solid tumours; conditions = 20 mg once daily, phase I dose escalation; measurement = patients with serious AE; result = 66.7%
Compound = COc1cc2c(Oc3ccc4[nH]c(C)cc4c3F)ccnc2cc1OCC1(N)CC1; test system = paediatric recurrent refractory sarcoma; conditions = 10 mg; measurement = grade 3 Rash; result = 0%
Compound = C=CC(=O)N1CC[C@H](n2nc(C#Cc3cc(OC)cc(OC)c3)c3c(N)ncnc32)C1; test system = human patients; conditions = oral, dose not given, QD regimen, adverse drug reaction, added: lanthanum carbonate hydrate; measurement = decreased appetite, grade ≥3; result = 4.2%
Compound = CN1CCN(S(=O)(=O)c2cc([N+](=O)[O-])ccc2N(CCOS(C)(=O)=O)CCOS(C)(=O)=O)CC1; test system = naive NOD/SCID mice, pooled blood; conditions = intraperitoneal, 6.3 mg/kg, week 1; measurement = potassium; result = 6.8 mmol/L
Compound = CC(C)C[C@H](NC(=O)[C@H](CCC(N)=O)NC(=O)[C@H](C)NC(=O)[C@H](C)NC(=O)[C@H](CCCNC(=N)N)NC(=O)[C@H](CCCNC(=N)N)NC(=O)[C@H](CCCNC(=N)N)NC(=O)[C@H](CC(C)C)NC(=O)[C@H](Cc1c[nH]cn1)NC(=O)[C@@H](NC(=O)[C@H](CCCCN)NC(=O)[C@H](CCCNC(=N)N)NC(=O)[C@H](CCCNC(=N)N)NC(=O)[C@H](CCCNC(=N)N)NC(=O)[C@H](CCC(N)=O)NC(=O)[C@H](CCCNC(=N)N)NC(=O)[C@H](CCCNC(=N)N)NC(=O)[C@H](CCCCN)NC(=O)[C@H](CCCCN)NC(=O)[C@H](CCCNC(=N)N)NC(=O)CNC(=O)[C@@H](N)Cc1ccc(O)cc1)[C@@H](C)O)C(=O)N[C@@H](CCCCN)C(N)=O; assay = flinch jump test; test system = rat; conditions = bilateral CA1 microinjection, dose not given; how to read = relative to: saline; measurement = flinch threshold; result = increased
Compound = O.O.O.O.O.O.[Cl-].[Cl-].[Co+2]; test system = rat female, urine; conditions = oral, 10 mg/kg single, day 2; measurement = urinary cobalt creatinine-corrected; result = 0.0545 µg/µmol creatinine
Compound = CCc1ccc(CC/C=C/c2ccc3c(c2)C(=O)CC3)cc1; test system = Sprague-Dawley rat, female, serum; conditions = oral, 30 mg/kg/day, 14 days; measurement = total bilirubin; result = 1.07 µM
Compound = Clc1ccc(-c2ccccc2)cc1; test system = Sprague-Dawley rats, female, serum; conditions = inhalation, 23 µg/rat, 4 h after exposure; measurement = potassium; result = 5 ± 1 mmol/L
Compound = C[C@H]1CN(C(=O)CC#N)[C@]12CCN(c1ncnc3[nH]ccc13)C2; test system = dog, male; conditions = oral, 0.6 mg/kg repeated, 9 months; measurement = AUC at NOAEL; result = 1540 ng·h/mL
Compound = CC[C@H](C)[C@H](NC(=O)[C@H](CCCCN)NC(=O)[C@H](CCC(=O)O)NC(=O)[C@H](CCCCN)NC(=O)[C@H](CO)NC(=O)[C@H](CCCCN)NC(=O)[C@H](CCCNC(=N)N)NC(=O)[C@H](Cc1ccccc1)NC(=O)[C@H](Cc1ccccc1)NC(=O)[C@H](CC(=O)O)NC(=O)CNC(=O)[C@H](CC(C)C)NC(=O)[C@@H](N)CC(C)C)C(=O)NCC(=O)N[C@@H](CCCCN)C(=O)N[C@@H](CCC(=O)O)C(=O)N[C@@H](Cc1ccccc1)C(=O)N[C@@H](CCCCN)C(=O)N[C@@H](CCCNC(=N)N)C(=O)N[C@H](C(=O)N[C@H](C(=O)N[C@@H](CCC(N)=O)C(=O)N[C@@H](CCCNC(=N)N)C(=O)N[C@H](C(=O)N[C@@H](CCCCN)C(=O)N[C@@H](CC(=O)O)C(=O)N[C@@H](Cc1ccccc1)C(=O)N[C@@H](CC(C)C)C(=O)N[C@@H](CCCNC(=N)N)C(=O)N[C@@H](CC(N)=O)C(=O)N[C@@H](CC(C)C)C(=O)N[C@H](C(=O)N1CCC[C@H]1C(=O)N[C@@H](CCCNC(=N)N)C(=O)N[C@H](C(=O)N[C@@H](CCC(=O)O)C(=O)N[C@@H](CO)C(=O)O)[C@@H](C)O)C(C)C)[C@@H](C)CC)C(C)C)[C@@H](C)CC; assay = LC-MS; test system = 50% pooled human serum; conditions = 40 µM, 120 min, pH 7.5, 37 °C; how to read = relative to: 0 h; measurement = remaining intact peptide; result = 2.49% and 2.06%
Compound = O[C@H]1CCCN[C@@H]1CCCn1cnc2c(Cl)c(Cl)ccc21; test system = healthy humans, plasma; conditions = oral, 150 mg, added: pirfenidone 600 mg; measurement = AUCtau; result = 1490 ng·h/mL
Compound = COc1ccc(-c2c(-c3ccc(C#N)c(F)c3)nc(N3CCC(N)CC3)n(C)c2=O)cc1F; assay = refers to: conjunctival hemorrhage; test system = relapsed/refractory MZL patients; conditions = oral, 60 mg, dose expansion; measurement = grade 3-4 TRAE incidence; result = 0%
Compound = O=C(O)CCCOc1ccc(F)cc1-c1cc(-c2ccccc2C(F)(F)F)n(-c2ccccc2)n1; test system = male Crl:CD(SD) rats, spleen; conditions = intravenous, 25 µg/kg, 14 d; measurement = relative organ weight; result = 0.17 ± 0.02 g%

For quick reference, copied from above:
Compound = C[C@@H]1OC(=O)NN=C1c1ccc(-c2ccc(F)cc2)c(C(F)(F)F)c1; assay = phase I trial, refers to: Fatigue worst grade 1; test system = human patients; conditions = 10 mg loading then 0.5 mg daily; measurement = patients with adverse event; result = 100%
Compound = CCN1CCN(Cc2ccc(Nc3ncc(F)c(-c4cc(F)c5nc6n(c5c4)[C@H](C)CCC6)n3)nc2)CC1; test system = advanced solid tumour patients; conditions = dose not given, Phase Ia monotherapy; measurement = Hyperglycemia incidence, any grade; result = 29.2%
Compound = C=CCNc1c(O)cc2c(O)c1C[C@@H](C)C[C@H](OC)[C@H](O)[C@@H](C)/C=C(\C)[C@H](OC(N)=O)[C@@H](OC)/C=C\C=C(/C)C(=O)N2; assay = refers to: first-degree AV block; test system = patients with unresectable or metastatic GIST, STS or other tumours; conditions = intravenous, 90 mg/m^2; measurement = treatment-emergent adverse events; result = 17%
Compound = CC(=O)c1c(C)c2cnc(Nc3ccc(C4CCN(CCS(C)(=O)=O)CC4)cn3)nc2n(C2CCCC2)c1=O; test system = human, dose-escalation trial, plasma; conditions = oral, 150 mg twice daily, day 1, single dose; measurement = Cmax; result = 324 ng/mL
Compound = Cc1cn([C@H]2O[C@@H](CO[P@@](=O)(N[C@@H](C)C(=O)OC(C)C)Oc3ccccc3)[C@H](O)[C@H]2F)c(=O)[nH]c1=O; assay = refers to: external ear pain; test system = human; conditions = 25 mg; measurement = patients with TEAE; result = 0%
